Assay results of several laboratories.
A part holds a random share of what one study measured.

Block 1 — technique: RNA Bind-n-Seq; molecule type: RNA; sample: in vitro; concentration: 200 nM; setting: whole 134-nt RNA, ends assumed; with: 150 mM LiCl; baseline: input library; direction: higher = stronger binding; library: 7-deaza-guanosine replaces G
Target: Fragile X messenger ribonucleoprotein 1, C-terminal low-complexity region (Fmr1, Mus musculus, UniProt P35922)
`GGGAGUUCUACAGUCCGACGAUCUUCAUUCUUACUUUGAAUCUAGGAUUUUAUGGAAGACCUUGGGUUAUGGAACAGAGAAAAGAACUCUUUAGAAGGUAAAUCUUCAUUAUAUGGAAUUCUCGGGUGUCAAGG` gave a log2 enrichment of -2.31.
`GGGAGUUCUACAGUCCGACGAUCGUCCUGUGCUACACAUCGUAUGUACCGAAUCGGGGUUUUUGGGGUUUUUGGUUUUUGGAAAGUAUUAUGUUACGCCGUUCGGAUCUGCACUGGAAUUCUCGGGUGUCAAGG` gave a log2 enrichment of -1.26.
For `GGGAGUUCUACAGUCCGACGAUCGUCCUGUGCUACACAUCGUAUGUACCGAAUCGGGGUUUUUGGGUUUUUGGGUUUUUGGGAAAGUAUUAUGUUACGCCGUUCGGAUCUGCAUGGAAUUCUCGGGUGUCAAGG`, the log2 enrichment was -0.803.
`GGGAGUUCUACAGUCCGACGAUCCGCAGACAACACGCACCCACACAGACACAGAGGGAAGGGGUUGGGAUGGGGACAGGGUGCACAGCAGGGCGGGGUAGGACCCCAGCCCCUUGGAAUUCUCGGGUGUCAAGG` gave a log2 enrichment of -0.142.
With `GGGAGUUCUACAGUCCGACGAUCCACAGACAACACGCACCCACACAGACACAGAGGCAAGGGGUUGGGAUGGGGACAGGGUGCACAGCAGGGCGGGGUAGGACCCCAGCCCCUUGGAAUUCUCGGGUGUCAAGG` the log2 enrichment was 0.949.
The log2 enrichment of `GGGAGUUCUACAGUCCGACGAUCUGGCCCUGGUGGCAUGCGGGGAGGAAGAGGUGGCCUCAUGGAUCGUGGUGGUCCCGGUGGAAUGUUCAGAGGUGGCGGUGGUGGAGACAGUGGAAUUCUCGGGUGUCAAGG` is reported as 0.0149.
The log2 enrichment of `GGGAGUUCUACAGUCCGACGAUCUCCUGUGCUACACAUCGUAUGUACCGAAUCGGGCCCCCCGGGGCCCCCCGGGCCCCCCGGAAAGUAUUAUGUUACGCCGUUCGGAUCUGCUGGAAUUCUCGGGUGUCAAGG` is reported as -2.15.
`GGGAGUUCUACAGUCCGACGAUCUGGGAGGUGGAUGUUGUUUAUUUUUUUAGCUCAUUUCCAGGGGUGGGAAUUUUUUUUUAAUAUGUGUCAUGAAUAAAGUUGUUUUUGAAAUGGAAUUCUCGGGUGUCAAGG` gave a log2 enrichment of 0.164.
For `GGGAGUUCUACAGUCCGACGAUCUCCUGUGCUACACAUCGUAUGUACCGAAUCGGCCCCCCGGGGCCCCCCGGCCCCCCGGGAAAGUAUUAUGUUACGCCGUUCGGAUCUGCAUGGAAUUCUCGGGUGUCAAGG`, the log2 enrichment was -2.4.
The log2 enrichment of `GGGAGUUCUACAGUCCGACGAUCUGGGAGGUGGAUUUUGUUUAUUUUUUUAGCUCAUUUCCAGGGGUGGGAAUUUUUUUUUAACAUGUGUCAUGAAUAAAGUUGUUUUUGAAAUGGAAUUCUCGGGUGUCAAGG` is reported as -0.505.
`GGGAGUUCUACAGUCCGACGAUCUUUGCAGAGCAGUCUCUGAUGAAGAAUGCCAUAAAAACAUCGGAGGAGUCAUGGAUUGAACAGCAGAUGCUAGAAGACAAGAAACGGGCCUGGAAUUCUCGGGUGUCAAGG` gave a log2 enrichment of -2.17.

Block 2 — technique: protein binding microarray; molecule type: double-stranded DNA, one strand shown; sample: in vitro; concentration: not given; baseline: not given; direction: higher = stronger binding
Target: Histone acetyltransferase KAT6A, winged helix 1, GST fusion (KAT6A, Homo sapiens, UniProt Q92794, residues 1-85)
Setting: 8-mer, flanks averaged, mean of 2 arrays, mostly near background
Target sequence (chain): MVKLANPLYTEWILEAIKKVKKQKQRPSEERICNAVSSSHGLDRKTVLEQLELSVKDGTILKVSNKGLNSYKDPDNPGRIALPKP
`ACACTTTA` has an E-score of -0.166.
`TCAATTGA` has an E-score of -0.128.
`ACACGCCA` has an E-score of -0.0101.
For `GATTCGCA`, the E-score was 0.0829.
With `ATCGAGAC` the E-score was -0.0866.

Block 3 — technique: RNA Bind-n-Seq; molecule type: RNA; sample: in vitro; concentration: 365 nM; baseline: no-protein control; direction: higher = stronger binding
Target: RNA binding protein fox-1 homolog 2, RRM domain, GST-SBP tag (RBFOX2, Homo sapiens, UniProt O43251-10, residues 100-194)
Setting: natural RNA segment, single round, ends assumed
Target sequence (chain): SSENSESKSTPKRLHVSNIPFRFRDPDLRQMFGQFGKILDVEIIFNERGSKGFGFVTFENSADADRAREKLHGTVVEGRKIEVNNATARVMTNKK
`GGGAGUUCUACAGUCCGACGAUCUAAGACAGGGAAAGCAAGUUCAUGGUACAUACGCAGCCAUUGUCUCUGUUUUUACCCAUGGCAGACAUUGCUAAUCAAUGGCAGCUCUAUUUCACUGAGUCUGGAUAAGGUGGAAUUCUCGGGUGCCAA`: “RBNS enrichment (R)” 0.89.
`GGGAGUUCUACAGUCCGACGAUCAAUAAUCCUAAAUUCUCUGGAAUAAAAAACUGAUUUCUUUGUUAAUUACUUGUACGAUGAAGGAUGCCUUUAAAAAAAAAUCAAAAUAAAUUAAACUGGUAAUGUUGAAUUGGAAUUCUCGGGUGCCAA`: “RBNS enrichment (R)” 0.603.
For `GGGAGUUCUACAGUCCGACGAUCUAACCUGGAUAUGUUAGAAAAGUAUCACGUGCCACCUGGGAAGAAGUUCUUUUCUGGCAACUGUCACACUCACACAUGAAGGCAAUCCGUGCAGCACAAUACAAGAUGUUUGGAAUUCUCGGGUGCCAA`, “RBNS enrichment (R)” read 0.385.
For `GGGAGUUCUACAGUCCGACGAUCAGUGUGGAGGCUGAGCUGGUGCCUGGCCCCAGUCUUAUCUGUGCCUUUACUGCUUUGCGCAUCUCAGAUGCUAACUUGGUUCUUUUUCCAGAAGCCUUUGUAUUGGUUAAUGGAAUUCUCGGGUGCCAA`, “RBNS enrichment (R)” read 0.268.
For `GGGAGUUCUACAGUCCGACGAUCUAAUUAUUAUUGCUGUUGUUAUUUUACAAGGGUCUAGGGAGAGACCCUUGUUUGAUUUUAGCUGCAGAACGUAUUGGUCCAGCUUGCUCUUCAGUGGGAGAAAACACUUGUGGAAUUCUCGGGUGCCAA`, “RBNS enrichment (R)” read 1.88.
`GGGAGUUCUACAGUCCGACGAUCCUCAGCUGCCUCACCCCCUGCACAUGUGCCUGGGGUGUGGCCUAGAAGGGAGUGAUGUUCUUACUCUGGUGGUCUGUGCUUCUGAACACAGGCUACAUGCACACACUGACUGGAAUUCUCGGGUGCCAA` — result for “RBNS enrichment (R)”: 0.281.
`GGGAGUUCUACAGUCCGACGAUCGUGGGAACACAGAGGGAGUAGCCUGCGAAUGUGCCUCCAGUCAGUGGGAUACUUUCUGCACCACUCUGAGUGAUUGUUACCUUGUAACCACUAGUAAGCUUUGUUCAUGCUGGAAUUCUCGGGUGCCAA`: “RBNS enrichment (R)” 0.665.
Under “RBNS enrichment (R)”, `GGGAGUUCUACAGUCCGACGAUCAGGUGCUACAUUUCUAUCUGUUGGUUUCAAUUCUGCCAUAUUUCAUGUCUAGCCUUUAGAGUGGCCAAUCAUGUUUUACUUUCAUUUAAGCACUGGUAGUCUGGAGUACCUGGAAUUCUCGGGUGCCAA` is recorded as 0.448.

Mixed results
With `PhoQ, residues 284 288 289 292 302 303 ASTSDA` the fold induction was 3.93 (PhoP, residues 12 14 15 18 19 NHTVL (Escherichia coli, UniProt P23836); Sort-seq, refers to: YFP reporter; E. coli; PhoQ-PhoP variant library, with: 10 µM Mg2+; baseline: high Mg2+ state, higher = stronger signaling).
